Assay results of several laboratories.
Every numbered part comes from another study and shows a few of its results, in no order.

Series 1
Target: Ras GTPase-activating protein-binding protein 1, full length (G3BP1, Homo sapiens, UniProt Q13283)
UniProt Q13283, sequence (whole entry, looked up): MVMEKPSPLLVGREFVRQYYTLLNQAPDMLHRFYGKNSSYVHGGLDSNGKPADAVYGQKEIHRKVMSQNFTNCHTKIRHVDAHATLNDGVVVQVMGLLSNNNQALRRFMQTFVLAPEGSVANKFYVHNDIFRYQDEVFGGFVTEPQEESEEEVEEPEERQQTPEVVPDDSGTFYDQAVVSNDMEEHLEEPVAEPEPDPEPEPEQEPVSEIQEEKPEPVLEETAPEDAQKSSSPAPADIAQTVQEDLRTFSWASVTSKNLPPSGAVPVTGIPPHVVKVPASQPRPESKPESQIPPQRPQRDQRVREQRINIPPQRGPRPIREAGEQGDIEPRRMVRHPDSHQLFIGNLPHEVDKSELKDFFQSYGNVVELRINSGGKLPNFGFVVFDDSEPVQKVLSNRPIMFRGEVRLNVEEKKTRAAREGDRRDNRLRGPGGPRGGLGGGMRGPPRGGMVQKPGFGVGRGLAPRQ
Method: RNA Bind-n-Seq
Molecule type: RNA
Medium: in vitro
Concentration: 200 nM
Notes: whole 134-nt RNA, ends assumed
Added: 150 mM KCl
Baseline: input library
Direction: higher = stronger binding
Sequence | log2 enrichment
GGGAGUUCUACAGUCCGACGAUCCAAGUCCUGUGCUACACAUCGUAUGUACCGAAUCGGGGAAAGGAAAGGGAAAGGGAAAGUAUUAUGUUACGCCGUUCGGAUCUGCACUUCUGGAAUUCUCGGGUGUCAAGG | 0.0219
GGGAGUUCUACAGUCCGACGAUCAGUCCUGUGCUACACAUCGUAUGUACCGAAUCGGGGAGGGGAAAAAAAGGGGUGGGGAAAGUAUUAUGUUACGCCGUUCGGAUCUGCACUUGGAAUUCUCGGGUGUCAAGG | 0.72
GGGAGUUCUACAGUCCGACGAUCGUCCUGUGCUACACAUCGUAUGUACCGAAUCGGGGCCCCCCGGCCCCCCGGCCCCCCGGAAAGUAUUAUGUUACGCCGUUCGGAUCUGCAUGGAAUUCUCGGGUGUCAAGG | -0.115
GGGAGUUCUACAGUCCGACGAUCUGGGAGGUGGAUUUUGUUUAUUUUUUUGGCUCAUUUCCAGGGGUGGGAAUUUUUUUUUAAUAUGUGUCAUGAAUAAAGUUGUUUUUGAAAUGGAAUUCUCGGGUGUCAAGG | 0.0351
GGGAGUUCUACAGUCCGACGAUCUUGCUAACUUCAAGAUAGAGCCUCCUGGACUUUUCCGUGGCCGCGGCAACCACCCCAAGAUGGGCAUGCUGAAGAGACGAAUCAUGCCCGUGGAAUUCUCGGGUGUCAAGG | -0.609
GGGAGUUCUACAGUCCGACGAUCCCUGUGCUACACAUCGUAUGUACCGAAUCGGGUUUUUGGGUUUUUUUGGGUUUUUUUGGGAAAGUAUUAUGUUACGCCGUUCGGAUCUGCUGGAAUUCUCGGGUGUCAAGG | -0.798
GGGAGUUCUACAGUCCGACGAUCGUCCUGUGCUACACAUCGUAUGUACCGAAUCAAAUUUUUUUAAAUUUUUAAAUUUAAAAAAGUAUUAUGUUACGCCGUUCGGAUCUGCACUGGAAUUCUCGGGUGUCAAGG | -1.58
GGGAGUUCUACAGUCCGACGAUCCCUCAAGUCCUGUGCUACACAUCGUAUGUACCGAAUCGGGGUGGGUGGUGGGAAAGUAUUAUGUUACGCCGUUCGGAUCUGCACUUCCAGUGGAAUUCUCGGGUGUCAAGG | 0.924
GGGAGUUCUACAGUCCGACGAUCUCCUGUGCUACACAUCGUAUGUACCGAAUCGGAAAAAAGGAAAAAAGGGGAAAAAAGGGGAAAGUAUUAUGUUACGCCGUUCGGAUCUGCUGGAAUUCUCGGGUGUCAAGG | -0.691
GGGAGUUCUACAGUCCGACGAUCCUCAAGUCCUGUGCUACACAUCGUAUGUACCGAAUCGGAGGAGGUUUUUUUGGAAAGUAUUAUGUUACGCCGUUCGGAUCUGCACUUCCAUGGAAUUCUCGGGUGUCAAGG | -0.391
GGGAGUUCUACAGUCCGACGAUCUCGGAUGGCUUCGCAUUUCCCCAAUACCCCAUUAAACCGUAUCAUCUGAAGAGGAUCCACAGAGCUGUCUUACAUGGUAAUCUAGAGAAAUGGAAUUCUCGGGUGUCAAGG | -0.532
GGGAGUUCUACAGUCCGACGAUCUCAAGUCCUGUGCUACACAUCGUAUGUACCGAAUCGGAAAAAGGAAAAAGGUGGAAAGUAUUAUGUUACGCCGUUCGGAUCUGCACUUCCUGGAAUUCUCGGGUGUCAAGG | -0.869
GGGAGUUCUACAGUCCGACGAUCUGGCCCUGGUGGCAUGCGGGGAGGAAGAGGUGGCCUCAUGGAUCGUGGUGGUCCCGGUGGAAUGUUCAGUGGUGGCCGUGGUGGAGACAGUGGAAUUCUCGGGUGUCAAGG | 0.297
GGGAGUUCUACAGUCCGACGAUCAGUCCUGUGCUACACAUCGUAUGUACCGAAUCGGGGAAAGGGGUGGGGAAAAAGGGGAAAGUAUUAUGUUACGCCGUUCGGAUCUGCACUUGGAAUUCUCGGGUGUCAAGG | 0.347

Series 2
Target: Max dimerization protein 1, bHLH-zipper, MAX partner unstated (MXD1, Homo sapiens, UniProt Q05195, residues 56-136)
Method: protein-binding microarray
Molecule type: double-stranded DNA, one strand shown
Medium: in vitro
Concentration: not given
Notes: k-mer, scored over probes, only values ≥0.25
Direction: higher = stronger binding
Target sequence (chain): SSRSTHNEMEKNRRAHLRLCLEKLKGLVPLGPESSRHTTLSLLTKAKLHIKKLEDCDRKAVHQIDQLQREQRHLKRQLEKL
Sequence | E-score
AGGGCGGG | 0.261
TCCATGCA | 0.33
ACAGGTGA | 0.254
CACATGGG | 0.476
CACGCCGC | 0.377
CAACATGA | 0.298
TCGGGGCA | 0.251
CACATGAA | 0.331
CGTGAAAG | 0.257
GCATGCGA | 0.368

Series 3
Target: RNA binding protein fox-1 homolog 2, RRM domain, GST-SBP tag (RBFOX2, Homo sapiens, UniProt O43251-10, residues 100-194)
Method: RNA Bind-n-Seq
Molecule type: RNA
Medium: in vitro
Concentration: 365 nM
Notes: natural RNA segment, single round, ends assumed
Baseline: no-protein control
Direction: higher = stronger binding
Residues (chain): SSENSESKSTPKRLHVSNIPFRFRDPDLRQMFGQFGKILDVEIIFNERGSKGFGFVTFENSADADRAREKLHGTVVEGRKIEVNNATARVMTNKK
Sequence | RBNS enrichment (R)
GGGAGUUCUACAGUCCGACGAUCGCAAUAUAAUAGUCAAUGAACUUUCAGUUUAAAUUGUGUACAUUUUUAAAUUGUAAGAUUUUUACUGUAUAUUGAUGCAUAGUGUGAUUCAAUAAAUUGCUUGUAAUUUAUGGAAUUCUCGGGUGCCAA | 0.537
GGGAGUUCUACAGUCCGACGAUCUCCCUCCCAGCCUGGUGCUGGUGAUGGGCCCUGGCCCUACUCCAGGGCCAAUGCACCCCCGCCUCACACACGCACUCCUUCUCCUCAAGGCCAGGGCAGAGGGCCUCACCUGGAAUUCUCGGGUGCCAA | 0.689
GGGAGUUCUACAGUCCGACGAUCUUUUUUUUAAAGAUAAACUUGUGUAGUUUGGAAGCAGAUUUAGAAAGAUGAACUUCACUUGGGCCAGAUAGGCUGAACCAAGCUUCCUGGCGUUUGUAGAGAAAGUGGGAUGGAAUUCUCGGGUGCCAA | 1.06
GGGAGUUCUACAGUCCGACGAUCGCCUCUUCCUUGAAGAACUGCAGGCCCUGGCCUCCCCUGCCACCAGGCCACCUCCCCAGCAUUCCAGCCCCUCUGGUCGCUCCUGCCCACGGAGUCGUGGGGUGUGCUGGUGGAAUUCUCGGGUGCCAA | 0.455
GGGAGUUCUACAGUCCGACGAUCAUGGCUUGAGGUGCCUGGCCCAUGCUGCCGGCUAAAUGCCAUCCAGUGUGCCCAGCAGUUUCAGACCUGACUCUGGAGGGAAUUUGGAGACAGUGUAGACAGCAGCUCUGUGGAAUUCUCGGGUGCCAA | 0.268
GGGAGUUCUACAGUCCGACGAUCCAAAAUUACCGAAUGCCAUUUUUAAAAGUAUGCUAUAAACUAUGCUACUCUCAUACAGGGGACCCGUAUUUUAAAAUCUCCAGACUUGCUUACAUCUAGAUUAUCCAGCAUGGAAUUCUCGGGUGCCAA | 10.2
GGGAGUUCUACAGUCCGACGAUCCUCAUCUCCCCUCACAGGCUGUCUUCAUGAUGCAGGACCUGGGCACAUGGUCACAUUAUUCCGUUCACAUUGGUCCUUGUGAGAACCUCACAGUCUGGAGGCGGCUGCUUUGGAAUUCUCGGGUGCCAA | 0.625
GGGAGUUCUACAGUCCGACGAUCGGUGCUGAGAAAGAUAUGUAUGCUGAAGGCUGUGAUUCCUCUUUUUAUUGUACCUAUGCCUGGGUGCUAAAGGUCAUGUAAGGACUAGUUCCUUUGAGGAGGACCCCCUGUGGAAUUCUCGGGUGCCAA | 1.52
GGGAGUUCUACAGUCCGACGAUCCUUCCCAGGGCUGCGGUCCUGGUGUCUACUGCCGGCCGGCUGAGUCUGCGUGGGCUUUCUGUCUCUCAGCUCCCUUUCCCAGCCCACAGGGACAGAAGUACCAUCCACUUUGGAAUUCUCGGGUGCCAA | 0.284
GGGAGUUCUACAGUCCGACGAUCGCACUUAGGGGAGAUGACAUUUGCUUUGGGCAGAGGCAGCUAGCCAGGACACAUUUCCACUAUAAUUUUACAAAGUUAAAUUUAUAAGCUAGCAUUAAGUAAAGUGAAGUUGGAAUUCUCGGGUGCCAA | 0.676
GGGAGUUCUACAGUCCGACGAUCCUGUAGAUAGGAGGUGCUUCUGGUGAACUGAAAGUGUCUGACUCGUGAGGAACAUGGUAGGUUCCUCACUUAUCACUGUAGAUGAUUCUAUAUGGACACAACAGUAAGAAUGGAAUUCUCGGGUGCCAA | 0.69
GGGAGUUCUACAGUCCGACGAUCUGCACAGGCCCCCCAGGCCUAGGUUCCCUUGGAGGCUGUGGCAAGUCCUCAAUCCUGUGUCCCAGAGGUCCCUCUGGGCCACAACCCAACCCUUCUCACUCUCCUCAGUGUGGAAUUCUCGGGUGCCAA | 0.213

Series 4
Target: Interferon regulatory factor 5, full length, phosphomimetic (IRF5, Homo sapiens, UniProt Q13568-2, residues 1-514, S451D/S453D/S456D/S462D)
Method: protein-binding microarray
Molecule type: double-stranded DNA, one strand shown
Medium: in vitro
Concentration: 940 nM top
Notes: 60-bp whole probe
Added: salmon DNA 0.4 mg/ml
Baseline: random background probes
Direction: higher = stronger binding
Constant ends, left off below: GCCTAGCAC … GTCTTGATTCGCTTGACGCTGCTG
Sequence | fitted relative affinity [z-score]
GACGTTCTCCTACTGCTGACGTGCTAG | 0.501
GATGATATCGGGTATCGAGACGTGCTA | 1.28
TCAACTCTGTTTTCGCTTACTGTGCTA | 1.31
AGAAACTTTTTTCTGATTGAGTGCTAG | 1.17
TTAAGAATGTTTTTCATTGTGTGCTAG | -0.193
TTAGATCTCAGACTCGATTAGTGCTAG | -0.258
GGCCTTGGAGGGGGTGGGTGGTGCTAG | 3.32
TGGGTTTTCAGCTGTTTTTCTGTGCTA | 0.387
GACGATATCAGTTTCGAGAAGTGCTAG | 3.36
GACGATTCCGGTTTCGAGACGTGCTAG | 4.29
TTAGGTATAGGACTGGGTTAGTGCTAG | -0.125
GACGGTCTCCTTCTCCTTACGTGCTAG | 0.324
TCATACATTTATATCTTACTGTGCTAG | 0.779
GACGATCTCAGTCTCGAGACGTGCTAG | 1.19
CTAGGTCTCCTACTGCTTTAGTGCTAG | -0.169
TCACTTTTGCTAATTTTACTGTGCTAG | 0.835
GACGATTTCGGGTAGCGAGACGTGCTA | 0.396
TCATATATCCATTATAGACTGTGCTAG | 0.436
TTAGATCTCAGTATCGGTTAGTGCTAG | 5.01
TCATATTTACTCTCTACAACTGTGCTA | 1.85

Series 5
Target: Histone acetyltransferase KAT6A, winged helix 1, GST fusion (KAT6A, Homo sapiens, UniProt Q92794, residues 1-85)
Method: protein binding microarray
Molecule type: double-stranded DNA, one strand shown
Medium: in vitro
Concentration: not given
Notes: 8-mer, flanks averaged, mean of 2 arrays, mostly near background
Baseline: not given
Direction: higher = stronger binding
Construct (chain): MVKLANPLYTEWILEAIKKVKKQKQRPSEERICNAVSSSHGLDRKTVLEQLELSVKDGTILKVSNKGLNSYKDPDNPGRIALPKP
Sequence | E-score
ACATTGTC | -0.00971
ATCCGCAA | 0.0643
TCACTCGA | -0.275
CGGTGTAC | 0.258
TCACGCCA | -0.0384
GAGTAGAA | -0.0681
GACCAAGA | -0.212
GACTGACC | 0.0322
GTCACCAC | 0.0374
TGTCTCAA | -0.155
AGAAACCC | -0.0292
ATGGATCA | -0.247
AAGACTCC | -0.0806
GATCCGCC | 0.212
CTTTAAAA | -0.0688
AACTTCTG | -0.149
AACAATTG | -0.175
AAGGCCCC | 0.144
